# Published values pooled from the literature.
# Protocols differ between the studies behind these lines.
# KIT V559D: Mast/stem cell growth factor receptor Kit (KIT, Homo sapiens, UniProt P10721, V559D)
# KIT L576P: Mast/stem cell growth factor receptor Kit (KIT, Homo sapiens, UniProt P10721, L576P)
# KIT V559D/V654A: Mast/stem cell growth factor receptor Kit (KIT, Homo sapiens, UniProt P10721, V559D/V654A)
# KIT: Mast/stem cell growth factor receptor Kit (KIT, Homo sapiens, UniProt P10721)
SMILES,target,assay,setting,how to read,remaining binding [%]
CCN1CCN(Cc2ccc(NC(=O)c3ccc(C)c(NC(=O)c4cncc(-c5cccs5)c4)c3)cc2C(F)(F)F)CC1,KIT V559D,"binding, competition with immobilised ligand",1 µM,,0
CCN1CCN(Cc2ccc(C(=O)Nc3ccc(C)c(NCc4cnc5[nH]ccc5c4OC)c3)cc2C(F)(F)F)CC1,KIT L576P,"binding, competition with immobilised ligand",1 µM,,0.8
Cc1cnc2nc1Nc1cccc(c1)COC/C=C/COCc1cc(ccc1OCCN1CCOCC1)N2,KIT V559D/V654A,binding,0.1 µM,,63
CNC1C[S+]2CC[S+]3CC[S+](C1)[Ru-4]321([N]=C=S)[n]2c3ccc(OC)cc3c3c4c(c5cc(F)c[n+]1c5c32)C(=O)NC4=O (stereo not drawn),KIT V559D,KinomeScan,0.1 µM,relative to: untreated,53
CNC(=O)C1CCN(c2cc(C)c(F)cc2NC(=O)c2ccc(-c3cc(O)ccc3C)c(C)c2)CC1,"Mast/stem cell growth factor receptor Kit (KIT, Homo sapiens, UniProt P10721, A829P)","binding, competition with immobilised ligand",1 µM,,74
Cc1ccc(-c2c(/C=C(\C#N)C(=O)NC(C)C)n(CCCO)c3ncnc(N)c23)cc1,KIT V559D/V654A,"cell-free assay, competition with immobilised ligand",1 µM,,96
CN1CCN(Cc2ccc(NC(=O)c3cccc(C#Cc4cnc(N)c5ncccc45)c3)cc2C(F)(F)F)CC1,KIT,"cell-free assay, competition with immobilised ligand",50 nM,,0.5
COc1c(Cl)cccc1Nc1c(-c2ccncc2C#C[C@@]2(C)CCCN2C(=O)/C=C/CN(C)C)[nH]c2c1C(=O)NCC2,KIT V559D/V654A,"binding, competition with immobilised ligand",3 µM,,85
C=CC(=O)N1CCc2ccc(-n3c(=O)ccc4cnc5ccc(-c6cnn(C)c6)cc5c43)cc21,KIT,KINOMEscan,1 µM,relative to: DMSO control,62
CC(C)=CC1OC(C)(C)C2C=C3C(=O)C(Cl)=CC(O)C3C3C(O)C4OC4C(=O)C132 (stereo not drawn),KIT V559D/V654A,"cell-free assay, competition with immobilised ligand",10 µM,,69
C=CC(=O)N1CCCC(n2c(=O)c3ncccc3n(Cc3ccc(Oc4ccccc4)cc3)c2=O)C1 (stereo not drawn),KIT L576P,"cell-free assay, competition with immobilised ligand",1 µM,,100
Nc1ncc2c(n1)-c1c([nH]c3ccc(C4=CCOCC4)cc13)CCC2,"Mast/stem cell growth factor receptor Kit (KIT, Homo sapiens, UniProt P10721, D816H)","binding, competition with immobilised ligand",1 µM,,84
